Published values of several laboratories.
Parts stem from different laboratories: compare values within a part only.

Block 1
Target: RING finger protein unkempt homolog, zinc fingers 1-6, GST-SBP tag (UNK, Homo sapiens, UniProt Q9C0B0, residues 30-357)
Sequence of UniProt Q9C0B0 (30-357, looked up): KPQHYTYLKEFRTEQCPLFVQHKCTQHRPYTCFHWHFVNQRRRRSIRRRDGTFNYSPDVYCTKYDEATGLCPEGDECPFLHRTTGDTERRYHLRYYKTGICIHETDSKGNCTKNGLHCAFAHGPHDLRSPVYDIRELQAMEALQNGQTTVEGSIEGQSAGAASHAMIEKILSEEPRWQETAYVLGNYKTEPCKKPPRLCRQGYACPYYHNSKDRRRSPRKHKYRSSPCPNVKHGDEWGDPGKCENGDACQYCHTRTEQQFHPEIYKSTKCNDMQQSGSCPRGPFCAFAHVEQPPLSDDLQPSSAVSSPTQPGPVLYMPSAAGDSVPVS
Method: RNA Bind-n-Seq
Molecule type: RNA
Matrix: in vitro
Tested at: not given
Setting: RNA with constant flanks, human-mouse chimeric sites, ends assumed
Reference: input RNA pool
Direction: higher = stronger binding
The bound/input enrichment of `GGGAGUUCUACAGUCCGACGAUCAGGAGGAGGUUAAAGGGUGAGAGUGGGGUGGAAGACUGUGUCAUGGCUCUGGAGACACUGUUCAGUGUCCUGCUUUCUCUUUGCAGACUGAUGGCCCCCUACACACCCUUUCUGACUGAGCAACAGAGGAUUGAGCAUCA` is reported as 0.0784 ratio.
The bound/input enrichment of `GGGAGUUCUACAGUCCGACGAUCGUAGCUGGGACUACAGAAGAAUGCUGAAUUUCAGUCACUUGCUGAUGACUUCUGAUGUCCCAGCAAAUAAUGCCACAGUUGACUGCUGAGAAGAUACUUCUGAGGACCCACGUCUAAGGUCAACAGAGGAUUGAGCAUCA` is reported as 0.119 ratio.
For `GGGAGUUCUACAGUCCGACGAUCCUGGCCUGGCCCUCCCCAGGGGCCUCCUUUCGUAUAGUAACUGUCAGUGCAUCAGAUACUUUCAGCUGCAACUCCCUGCAGGGUGGGGCACCCAUUUCAGGCAGAAGGUUUUGGUACCCUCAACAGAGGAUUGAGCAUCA`, the bound/input enrichment was 0.445 ratio.
With `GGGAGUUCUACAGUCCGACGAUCAGAGCCCAGGAUGUUGAUGCUACAAAUCCAAAUUACGAAAUUAUGUGUAUGAUCAGAGACUUCAGAGGAAGUUUGGAUUACAGACCCCUAACAACAGCAGAUCCUAUUGAUGAACAUAGGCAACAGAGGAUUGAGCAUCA` the bound/input enrichment was 0.457 ratio.
For `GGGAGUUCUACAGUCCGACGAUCGCGAACAGGACUACAGAAAUGCUGGUAAUUUCAGUCACUUGCUGAUGACUUCUGAUGUCCCAGCAAAUGUUGGCAUUCACUGCAAUAGAGAAGAUACUUCUGAGGACCCACGUCUAAGGUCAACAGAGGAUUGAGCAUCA`, the bound/input enrichment was 0.172 ratio.
`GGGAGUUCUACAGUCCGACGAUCUGUGAACUGUCUCUUGAUUGGGGUCUACAAGAUGACUUUUCCUGGCACAUAUUCCAAAGCAAAGACUUUGUUGCCUGCUGCUUAUUGUCUAAUUUACAGGGAUAUUUAAUUUUGUCAGGUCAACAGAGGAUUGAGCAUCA` has a bound/input enrichment of 0.365 ratio.
`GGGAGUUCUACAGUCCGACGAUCAGAAUCUUGGGACUGUUUUACUUAAUUGGUCAUUGAUAGCUUAACAAACAUGGAGAUAAGAUUAGAAGUUUUGACAUCAACAAGUAUUAAGCAGAAAAAACCAUGGCCACGUGUCUCCUGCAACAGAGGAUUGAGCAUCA` has a bound/input enrichment of 0.351 ratio.

Block 2
Target: Max dimerization protein 1, bHLH-zipper, MAX partner unstated (MXD1, Homo sapiens, UniProt Q05195, residues 56-136)
Method: protein-binding microarray
Molecule type: double-stranded DNA, one strand shown
Matrix: in vitro
Tested at: not given
Setting: k-mer, scored over probes, only values ≥0.25
Direction: higher = stronger binding
Target sequence (chain): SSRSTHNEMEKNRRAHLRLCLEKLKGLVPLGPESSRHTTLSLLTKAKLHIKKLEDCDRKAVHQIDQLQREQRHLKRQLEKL
The E-score of `CCGCGTGC` is reported as 0.442.
`AACCCATG` has an E-score of 0.353.
With `CCGGCACG` the E-score was 0.298.
`CCCACGCA` has an E-score of 0.251.
For `GAGCATGA`, the E-score was 0.297.
For `ATGCGTGA`, the E-score was 0.333.
`CAGACACG` has an E-score of 0.287.
`CCCCATGA` has an E-score of 0.36.
With `GGCATGGA` the E-score was 0.372.
With `ATGTGCCG` the E-score was 0.268.

Block 3
Target: Histone acetyltransferase KAT6A, winged helix 1, GST fusion (KAT6A, Homo sapiens, UniProt Q92794, residues 1-85)
Method: protein binding microarray
Molecule type: double-stranded DNA, one strand shown
Matrix: in vitro
Tested at: not given
Setting: 8-mer, flanks averaged, mean of 2 arrays, mostly near background
Reference: not given
Direction: higher = stronger binding
Residues (chain): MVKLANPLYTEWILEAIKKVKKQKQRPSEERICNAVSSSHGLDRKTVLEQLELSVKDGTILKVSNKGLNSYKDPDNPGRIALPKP
`GGCTCAAC` gave an E-score of -0.12.
For `CAAAGTGC`, the E-score was -0.0412.
The E-score of `AAAGAGTG` is reported as -0.118.
With `AAGCGCGC` the E-score was 0.44.
`GGAACGTA` has an E-score of 0.0431.
`AGGGGTAT` gave an E-score of -0.149.
`GCTGCCGA` has an E-score of 0.235.
For `ATCTATTG`, the E-score was -0.163.
`AATTCTCT` gave an E-score of -0.102.
With `AGATTCAC` the E-score was -0.176.
With `GCGGCAGA` the E-score was 0.377.
With `ATTCGGCG` the E-score was 0.241.
`CGTTTGTC` has an E-score of 0.116.
The E-score of `AAGTTCTA` is reported as -0.0829.
For `ACCCAAGC`, the E-score was -0.0207.
With `GAAAGCTA` the E-score was -0.0871.
The E-score of `ACCGGGAT` is reported as 0.254.
For `CCACGAGG`, the E-score was -0.159.
With `GGGGCCAC` the E-score was -0.0599.
With `CTCGCGGA` the E-score was 0.184.
`ATTTGTTC` gave an E-score of -0.0096.
With `TAACCTTA` the E-score was -0.165.

Block 4
Target: Hepatocyte nuclear factor 3-alpha (Foxa1, Mus musculus, UniProt P35582, residues 1-468, full length assumed)
Method: EMSA with sequencing
Molecule type: double-stranded DNA, one strand shown
Matrix: in vitro
Tested at: 10 and 20 nM
Setting: whole designed probe, mean of two concentrations, ends assumed
Reference: negative control set to 0
Direction: higher = stronger binding
Construct (chain): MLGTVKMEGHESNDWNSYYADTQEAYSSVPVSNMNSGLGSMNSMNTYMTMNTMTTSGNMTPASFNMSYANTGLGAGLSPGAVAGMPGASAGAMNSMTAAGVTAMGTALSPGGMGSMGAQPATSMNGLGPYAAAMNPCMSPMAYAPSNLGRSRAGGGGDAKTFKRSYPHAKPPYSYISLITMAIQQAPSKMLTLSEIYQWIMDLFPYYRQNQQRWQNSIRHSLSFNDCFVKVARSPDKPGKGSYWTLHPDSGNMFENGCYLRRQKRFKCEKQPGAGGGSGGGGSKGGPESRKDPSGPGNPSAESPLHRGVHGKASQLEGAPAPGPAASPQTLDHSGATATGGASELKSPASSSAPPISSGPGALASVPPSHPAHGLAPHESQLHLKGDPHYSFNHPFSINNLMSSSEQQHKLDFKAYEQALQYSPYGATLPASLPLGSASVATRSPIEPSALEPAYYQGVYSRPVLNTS
For `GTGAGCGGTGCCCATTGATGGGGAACCAGCCTGCAGTGCGCTCAGTTAAACAATTCCAAATCAAGGAATTTTGTCTGATACAAGGAATTTGGGGTGTGTTTTCCTAACATGCACCCTGGGTAAATAGACTGCATTTCCGGGGGGGGGGCTGACCCAGCTGAAGCCAATATGCATTGCGGCCACAAGGTGGCGCGTCTGGGCCTGGCAAACCCCTGTGCTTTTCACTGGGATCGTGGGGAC`, “normalised bound fraction” read 0.222 ratio.
`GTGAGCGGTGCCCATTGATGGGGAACTGTTTTAAGAGAAAAAGGGTTCCATGGGATCTCAAACTCTTGAGAGCTCTCTCTGTAGGTGGGAGTTCTGTCATGTGGGGTTTGTGCCCTTGTAAATTACAATGCAGAATGAACACGTGATATTTGACTCCACCTCTCCCCCACACCCAGACTGTGCCCACTTCCCCTCCTATGACATTTGGATCTTTCCATATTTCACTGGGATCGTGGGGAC`: “normalised bound fraction” -0.032 ratio.
For `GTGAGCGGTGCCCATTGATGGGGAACATCTTCCCCCTCTTCCTTGCCCCACCAGCTCACCTTCCCGGGTTATTTGCACAAAGGAAAATAAATAAAGCCGGCATTCGTTAACCCTCTTCACGCGCATACTGCTGTTTGCTCTGCATGAATCATGGTCCTTACGCGACGCCAGGCTCCGGGAGAGCAAAGCACCGTGTCAGGCGCATGATCCGGGGTGGCCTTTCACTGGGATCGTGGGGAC`, “normalised bound fraction” read 0.372 ratio.
`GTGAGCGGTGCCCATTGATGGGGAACATCTTCCCCCTCTTCCTTGCCCCACCAGCTCACCTTCCCGGGTTATTTGCAGATAGGAAAATAAATAAAGCCGGCTTTTTTTTTCCCTCTTCTGGCGCAAACTGCTGTTTGCTCTGGATGAATCATGGTCCTTTGGCGACGCCAGGCTCCGGGAGAGCAAAGCACCGTGTCAGGGCCATGATCCGGGGTGGCCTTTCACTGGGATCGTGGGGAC` — result for “normalised bound fraction”: 0.335 ratio.
Under “normalised bound fraction”, `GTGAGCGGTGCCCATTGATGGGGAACCAAACTTTGCTGTAGTTTAACCCTGTAAATCATTGGAAAGTTTATCAAATACCTTAAATGCTTTTGCAACTTATTCATTCCCTGGTTATTTGGGTAATCTAGTACAGCGAACAGTTGGATGAACTTTATCTGAACTATTATCACTGAGCTGTTGGGGGAAATTCCGTCTTTTCCAAATCTGTACTGCGATATATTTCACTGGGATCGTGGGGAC` is recorded as 0.00393 ratio.

Block 5
Target: RNA binding protein fox-1 homolog 2, RRM domain, GST-SBP tag (RBFOX2, Homo sapiens, UniProt O43251-10, residues 100-194)
Method: RNA Bind-n-Seq
Molecule type: RNA
Matrix: in vitro
Tested at: 365 nM
Setting: natural RNA segment, single round, ends assumed
Reference: no-protein control
Direction: higher = stronger binding
Construct (chain): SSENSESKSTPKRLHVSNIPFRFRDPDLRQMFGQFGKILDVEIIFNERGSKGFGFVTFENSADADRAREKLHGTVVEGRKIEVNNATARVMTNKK
`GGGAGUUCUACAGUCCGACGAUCUGAUGUUUACCAUAAGCAGGUACAAGCUUCAUGAACCGUUCUUAAUGAACUAUAAUUGAAUAGAUACCAAAAAUAGAAUGACAAAUGUAUUUUAAUAGCAGAUGAGGCAGUGGAAUUCUCGGGUGCCAA` — result for “RBNS enrichment (R)”: 1.02.
`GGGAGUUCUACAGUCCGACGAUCGGCCUUGUUUCUCCUUGCCCAGCAGUGCUGCCUUCAGCGGCCGUGACGGGGCCAGCUGGACACACGGUGAGAUUUUCUCGUAUGUAAAUAAAAGGCAUUUUGGUAAACGUUGGAAUUCUCGGGUGCCAA`: “RBNS enrichment (R)” 0.484.
`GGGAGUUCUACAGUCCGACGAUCCUGUUCCAGACUGGACAUCCACUGUCUUUCCUGCUUUCGCGUCAGAUUUACAGCUUAUGCUAGGCCCACCCAACUGGACAAGGCUGUCUCCUGUCUUCUACUACCCUGGCUGGAAUUCUCGGGUGCCAA` — result for “RBNS enrichment (R)”: 0.365.
For `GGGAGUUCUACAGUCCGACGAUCACAAAAAAAAAAAAAAGCCAUUAAUCUGCCAGUCAAGACUACAGUUAAAAUCCCCUUCGCACUGCAGCAGUGCCCACCCCCUUCAUGUGAUUGUACAGUAUUCAAACUUUUGGAAUUCUCGGGUGCCAA`, “RBNS enrichment (R)” read 0.403.
For `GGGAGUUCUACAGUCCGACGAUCACUUGAAAGGACUGACCCCAUUGUCCCUUAGAAGUACUGACGUGUGCCAUCACGCAUUUAAGACAGGAUUGGACUGUCAUCUCGCAUCAGAAACCGUUACAAUUUCCUGUUGGAAUUCUCGGGUGCCAA`, “RBNS enrichment (R)” read 0.623.
For `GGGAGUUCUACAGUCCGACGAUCGGAUUACAGGUGUGAGCCACUGUGCCCAGCGUGAUUUUUUUUUUUUUUUAAAGCAAACUUGUCCUUUGGUUUUGCAGAACAGGCCUGCUCCCUCUCAUCUAGCCCAUCAUUGGAAUUCUCGGGUGCCAA`, “RBNS enrichment (R)” read 0.641.
Under “RBNS enrichment (R)”, `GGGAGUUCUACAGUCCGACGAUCCCUGUUGCAUUAAGACUUGAAAGACUUGUAGAUGUGUGAUGUUCAGGCACAGGAUGCUGAAAGCUAUGUUACUAUUCUUAGUUUGUAAAUUGUCCUUUUGAUACCAUCAUUGGAAUUCUCGGGUGCCAA` is recorded as 0.79.
`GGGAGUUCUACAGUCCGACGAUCGUGAGUUCUCUCCUGACAGCUGUGAGCUCAGCUGGUGUGGGUGAGCCUUUCCUGCAGGAAGAGCCUCCCAAGGGAUGGCCAAAGAAGAGCAGGAUAGGCAAAGCUGUGGAUGGAAUUCUCGGGUGCCAA`: “RBNS enrichment (R)” 0.357.

A few entries again (block 3):
With `AAGCGCGC` the E-score was 0.44.
For `CAAAGTGC`, the E-score was -0.0412.
`ATTTGTTC` gave an E-score of -0.0096.
With `ATTCGGCG` the E-score was 0.241.
`GGAACGTA` has an E-score of 0.0431.
